Measurements of several laboratories.
Parts stem from different laboratories: compare values within a part only. Positions count from the first letter of the parent shown.

Sample 1
Target: Histone acetyltransferase KAT6A, both winged helices, GST fusion (KAT6A, Homo sapiens, UniProt Q92794, residues 1-181)
Technique: protein binding microarray
Form: double-stranded DNA, one strand shown
Medium: in vitro
Tested at: not given
Notes: 8-mer, flanks averaged, mean of 2 arrays, mostly near background
Baseline: not given
Reading: higher = stronger binding
Target sequence (chain): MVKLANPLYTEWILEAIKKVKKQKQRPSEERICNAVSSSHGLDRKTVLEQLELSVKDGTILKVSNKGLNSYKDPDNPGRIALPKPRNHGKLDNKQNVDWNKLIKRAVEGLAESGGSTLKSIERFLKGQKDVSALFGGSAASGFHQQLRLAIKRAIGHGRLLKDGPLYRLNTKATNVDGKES
Sequence | E-score
CAGTAGTC | -0.0829
AGGGTGTG | -0.151
AAATCACA | -0.064
TCACCGGA | 0.0641
ATGATACG | 0.0226
ACTTGTAG | -0.0607
GCACAACC | -0.0412
ACCTACCA | -0.334

Sample 2
Target: MAFG, bZIP domain (human)
Technique: DHFR protein complementation
Medium: yeast
Notes: single substitutions, most at no-binding floor
Baseline: wild-type JUN-FOS pair
Reading: higher = stronger binding
Starting sequence: JUN, bZIP domain (human); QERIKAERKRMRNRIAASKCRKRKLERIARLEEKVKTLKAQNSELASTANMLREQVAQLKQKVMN; partner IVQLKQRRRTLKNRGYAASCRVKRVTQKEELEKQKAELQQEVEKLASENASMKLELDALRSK
Variant | binding fitness [natural log]
L38D | -1.5
L38V | -1.49
T37N | -1.4
A49I | -1.37
L38N | -1.52
K34C | -1.41
L38K | -1.47
A49M | -1.41

Sample 3
Target: Prothrombin, mature alpha-thrombin (F2, Homo sapiens, UniProt P00734)
Technique: aptamer microarray, sandwich
Form: DNA with 2'F-ANA
Medium: in vitro
Tested at: 200 nM
Notes: whole 15-mer aptamer, many near background
Added: Cy3 exosite-II aptamer, 400 nM
Reading: higher = stronger binding
Sequence: GGTTGGTGTGGTTGG
Modification | mean fluorescence intensity
2'F-ANA at 6 8 9 11 12 14 15 | 188 a.u.
2'F-ANA at 1 2 4 5 9 11 14 15 | 47.1 a.u.
2'F-ANA at 2 6 7 10 15 | 131 a.u.
2'F-ANA at 1 10 12 14 15 | 58.9 a.u.
2'F-ANA at 1 2 5 9 10 11 12 13 14 | 49.5 a.u.
2'F-ANA at 1 5 6 7 13 | 46.3 a.u.
2'F-ANA at 1 3 4 8 9 13 14 | 68.6 a.u.
2'F-ANA at 1 5 6 13 15 | 52.9 a.u.

Other studies, line by line
Starting sequence: viral docking peptide; KKAKRRLFTISDS; partner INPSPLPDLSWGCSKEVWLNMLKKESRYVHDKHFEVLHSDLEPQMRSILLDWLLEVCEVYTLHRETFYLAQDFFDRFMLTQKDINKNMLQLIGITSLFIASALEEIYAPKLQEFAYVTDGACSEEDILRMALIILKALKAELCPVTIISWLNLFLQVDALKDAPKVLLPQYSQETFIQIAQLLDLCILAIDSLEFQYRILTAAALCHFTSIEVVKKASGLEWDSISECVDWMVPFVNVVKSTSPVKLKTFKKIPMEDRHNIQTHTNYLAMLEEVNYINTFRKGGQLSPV
Variant | target | assay | test system | setting | scale | measurement | value
S11A | CCNE2, cyclin fold, Cln2 fusion (human) | yeast growth competition, sequencing | yeast | strong parent motif | baseline: not given, higher = stronger binding | normalised enrichment score | 2.13

Excerpt of the above (sample 2):
Variant | binding fitness [natural log]
A49I | -1.37
L38N | -1.52
K34C | -1.41
L38K | -1.47
